Measurements pooled from the literature.
Numbered parts are unrelated; each lists some results of a single study.

Series 1 — target: UBE2L6 UBC core domain (UniProt O14933); method: yeast two-hybrid; matrix: yeast; notes: mostly zero background; reference: not given; reading: higher = stronger interaction; endpoint: lacZ reporter activity
B1: RNF6 RING domain (UniProt Q9Y252); chain NSIDSELGKICSVCISDYVTGNKLRQLPCMHEFHIHCIDRWLSENCTCPICRQPVLGSNIAN
B2: ZMYND11 RING domain (UniProt Q15326); chain DEIDWETENHDWYCFECHLPGEVLICDLCFRVYHSKCLSDEFRLRDSSSPWQCPVCRSIKKKNTNKQEM
B3: TRIM11 RING domain (UniProt Q96F44); chain LSTNLQEEATCAICLDYFTDPVMTDCGHNFCRECIRRCWGQPEGPYACPECRELSPQRNLRP
B4: NFX1 RING domain (UniProt Q12986); chain IEQLTTEKYECMVCCELVRVTAPVWSCQSCYHVFHLNCIKKWARSPASQADGQSGWRCPACQNVSAHVPNTY
B5: HLTF RING domain (UniProt Q14527); chain LILSSGSDEECAICLDSLTVPVITHCAHVFCKPCICQVIQNEQPHAKCPLCRNDIHEDNLLE
B6: CNOT4 RING domain (UniProt O95628); chain MSRSPDAKEDPVECPLCMEPLEIDDINFFPCTCGYQICRFCWHRIRTDENGLCPACRKPYPED
B7: TRIM41 RING domain (UniProt Q8WV44); chain PVQTLQEEAVCAICLDYFTDPVSIGCGHNFCRVCVTQLWGGEDEEDRDELDREEEEEDGEEE
B8: VPS8 RING domain (UniProt Q8N3P4); chain TRGLNPKQDYCSICLQQYKRRQEMADEIIVFSCGHLYHSFCLQNKECTVEFEGQTRWTCYKCSSSNKVGKLSE
B9: RING1 RING domain (UniProt Q06587); chain SPRSLHSELMCPICLDMLKNTMTTKECLHRFCSDCIVTALRSGNKECPTCRKKLVSKRSLR
B10: MKRN3 RING domain (UniProt Q13064); chain FAVQRGMDKVCGICMEVVYEKANPNDRRFGILSNCNHSFCIRCIRRWRSARQFENRIVKSCPQCRVTSELVIPSE
B11: RNF103 RING domain (UniProt O00237); chain WPADMLHCTECVVCLENFENGCLLMGLPCGHVFHQNCIVMWLAGGRHCCPVCRWPSYKKKQPY
B12: RNF186 RING domain (UniProt Q9NXI6); chain HSGSTECDLECLVCREPYSCPRLPKLLACQHAFCAICLKLLLCVQDNTWSITCPLCRKVTAVPGGLI
B13: BFAR RING domain (UniProt Q9NZS9); chain GPQISVSEFSCHCCYDILVNPTTLNCGHSFCRHCLALWWASSKKTECPECREKWEGFPKVS
Construct (chain): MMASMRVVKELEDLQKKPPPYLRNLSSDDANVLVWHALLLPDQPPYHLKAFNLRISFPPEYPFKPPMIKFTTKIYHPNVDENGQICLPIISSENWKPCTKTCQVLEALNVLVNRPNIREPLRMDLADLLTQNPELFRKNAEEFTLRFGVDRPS
Sequence = LVKDFNPYITCYICKGYLIKPTTVTECLHTFCKTCIVQHFEDSNDCPRCGNQVHETNPLE (PCGF5 RING domain (UniProt Q86SE9)); value = 0
Sequence = B1 (RNF6 RING domain); value = 0
Sequence = B2 (ZMYND11 RING domain); value = 0
Sequence = EIKEYKARLTCPCCNTRKKDAVLTKCFHVFCFECVRGRYEARQRKCPKCNAAFGAHDFHR (RNF40 RING domain (UniProt O75150)); value = 0
Sequence = B3 (TRIM11 RING domain); value = 0
Sequence = LEALSSDFLACKICLEQLRAPKTLPCLHTYCQDCLAQLADGGRVRCPECRETVPVPPEGV (TRIM56 RING domain (UniProt Q9BRZ2)); value = 0
Sequence = FDPPLESKYECPICLMALREAVQTPCGHRFCKACIIKSIRDAGHKCPVDNEILLENQLFP (TRAF6 RING domain (UniProt Q9Y4K3)); value = 0
Sequence = B4 (NFX1 RING domain); value = 0
Sequence = B5 (HLTF RING domain); value = 0
Sequence = B6 (CNOT4 RING domain); value = 0
Sequence = B7 (TRIM41 RING domain); value = 0
Sequence = B8 (VPS8 RING domain); value = 0
Sequence = B9 (RING1 RING domain); value = 0
Sequence = B10 (MKRN3 RING domain); value = 0
Sequence = B11 (RNF103 RING domain); value = 0
Sequence = ASEEEFQFLRCQQCQAEAKCPKLLPCLHTLCSGCLEASGMQCPICQAPWPLGADTP (PML RING domain (UniProt P29590)); value = 0
Sequence = B12 (RNF186 RING domain); value = 0
Sequence = B13 (BFAR RING domain); value = 0

Series 2 — method: universal PBM; form: double-stranded DNA, one strand shown; matrix: in vitro; tested at: not given; reading: higher = stronger binding; endpoint: E-score
Target: Sal-like protein 4, full length isoform B (SALL4, Homo sapiens, UniProt Q9UJQ4-2, residues 1-616)
Notes: 8-mer, flanks averaged, mean of replicates
Construct (chain): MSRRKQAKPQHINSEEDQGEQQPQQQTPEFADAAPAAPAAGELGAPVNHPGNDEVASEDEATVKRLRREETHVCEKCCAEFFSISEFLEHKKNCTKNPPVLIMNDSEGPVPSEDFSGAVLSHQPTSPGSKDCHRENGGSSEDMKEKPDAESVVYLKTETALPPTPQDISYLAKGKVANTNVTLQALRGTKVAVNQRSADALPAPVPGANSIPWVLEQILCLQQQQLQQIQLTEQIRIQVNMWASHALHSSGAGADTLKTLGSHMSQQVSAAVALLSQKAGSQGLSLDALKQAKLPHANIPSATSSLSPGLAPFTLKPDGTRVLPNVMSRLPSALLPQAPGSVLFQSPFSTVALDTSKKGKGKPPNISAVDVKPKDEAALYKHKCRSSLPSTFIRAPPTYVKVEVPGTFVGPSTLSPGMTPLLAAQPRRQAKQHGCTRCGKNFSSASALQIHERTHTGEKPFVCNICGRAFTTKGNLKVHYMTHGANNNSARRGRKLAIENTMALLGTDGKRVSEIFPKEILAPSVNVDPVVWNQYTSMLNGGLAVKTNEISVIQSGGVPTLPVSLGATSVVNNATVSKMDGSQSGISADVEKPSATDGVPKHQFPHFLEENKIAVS
Strand = AAAAGATT; value = 0.205
Strand = GCAGAACC; value = -0.219
Strand = CAGCATCG; value = -0.242
Strand = ATCTGTAA; value = 0.147
Strand = CTACGAAC; value = -0.0355
Strand = ATAGCACA; value = 0.124
Strand = TAAAAATA; value = 0.406
Strand = ATAGGCAT; value = 0.126
Strand = GAACACTC; value = -0.0398
Strand = ATGAGCTC; value = -0.11
Strand = CCTCTCTC; value = -0.0327
Strand = CAAACTCA; value = -0.00096
Strand = AAACGACG; value = 0.0675
Strand = ATTGTTCG; value = 0.319
Strand = AAGGTATG; value = 0.15
Strand = AGACAATG; value = 0.0761
Strand = GCTCGAAA; value = -0.0587
Strand = CGGCCAGA; value = -0.297
Strand = ACTCAAGT; value = 0.0795
Strand = CACCCGGC; value = -0.393
Strand = CCCATCAA; value = 0.098
Strand = ACTAAAAA; value = 0.27
Strand = AGGAGGGC; value = -0.209
Strand = CTTATGGC; value = 0.0997
Strand = ACACGAGC; value = -0.0896

Series 3 — method: competition protein-binding microarray; form: double-stranded DNA, one strand shown; matrix: in vitro; tested at: 2 µM; with: Pho4 competitor, 0.05 µM; reading: higher = stronger binding; endpoint: fluorescence intensity; all sequences stand within: … GTCTTGATTCGCTTGACGCTGCTG
Target: Centromere-binding protein 1, full length, His-tagged (CBF1, Saccharomyces cerevisiae, UniProt P17106, residues 1-351)
Chain of UniProt P17106 (whole entry, looked up): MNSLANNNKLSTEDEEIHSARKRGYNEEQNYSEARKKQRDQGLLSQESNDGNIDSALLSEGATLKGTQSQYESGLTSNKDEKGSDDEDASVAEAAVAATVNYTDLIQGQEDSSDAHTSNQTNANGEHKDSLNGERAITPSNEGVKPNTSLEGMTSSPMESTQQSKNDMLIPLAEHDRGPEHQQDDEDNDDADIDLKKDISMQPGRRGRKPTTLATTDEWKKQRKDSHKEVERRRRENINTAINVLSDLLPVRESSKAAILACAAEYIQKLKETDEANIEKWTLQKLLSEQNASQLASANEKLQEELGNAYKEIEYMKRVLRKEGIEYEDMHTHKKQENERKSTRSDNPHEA
Notes: whole 60-bp probe, lowest competitor level
Strand = CTTCTGTAAATTTGTCGAGTGGGTGGACGCGCCCCG; value = 63 a.u.
Strand = AGGCGCGCGCAAAAGCACGCACGGATTGACCGGAGC; value = 80.1 a.u.
Strand = TGGACCCTTGTCCGTCACGTGAGGAAAAATACTATT; value = 6650 a.u.
Strand = CTCTTTGGTCTTGGCCAGAGGTCCCAGAGTCGAAAA; value = 48.5 a.u.
Strand = CGGGGTTAAGTTTTTCACGTGGGGTGCTTGCAGCAG; value = 528 a.u.
Strand = CTGCCATTCAAGCCAAGCGTGTCTGTATCCAAAAGA; value = 73.8 a.u.
Strand = GCAGGTATGTTTTTCACCGTGAAGATGGACGCATCT; value = 89.6 a.u.
Strand = AGACTTACCAGAATCGACATGACAGATAACGACAAG; value = 86.4 a.u.
Strand = TGCGCAACAACTTGTCACCCTACTTTATGTCTAGAA; value = 76.4 a.u.
Strand = AGACCAGTGTATATTCAGCTGATCCCAATTATCATT; value = 132 a.u.
Strand = TGGAAGGAAAAACAGCACGCTTGTAAGGGGGATGGG; value = 95.9 a.u.
Strand = AATCACAGATTGTTAGCCTGATGTATACAGTAAATT; value = 76.6 a.u.
Strand = TGCGCAACAACTTGAACGGTGGGTGTATGTCTAGAA; value = 66.7 a.u.
Strand = CAGGCTGGTGCGCAGCACATGGCCGGGCTCCGGGTG; value = 67 a.u.
Strand = CGTCCTAGTGATTTTCACGTGACGTCCATGAGGAAG; value = 4440 a.u.
Strand = TGCTTCTTTTTCCTTCACGTGTGGAGCCAAGTGCGG; value = 882 a.u.
Strand = CGTTGGTGGTGCAAAGTCGTGCTTTAACCCATCGGG; value = 66.6 a.u.
Strand = CGGGGTTAAGTTTGGGTTGTGGGTGGCTTGCAGCAG; value = 71.9 a.u.
Strand = ATCATCATACATTTGCACGTGGCCGTTACATTTTTC; value = 1380 a.u.
Strand = AAATTACTAAGTTGGAGAGTGGGTGACGCCGTATGA; value = 68.4 a.u.
Strand = CTTCTGTAAATTTTTCACGTGTTTTGACGCGCCCCG; value = 962 a.u.
Strand = ACAATAGGGTTTCGTCACGTAATAAGCAACGTACAG; value = 104 a.u.
Strand = AGGCTGCTTGATGTATTCGTGCGGAAAAAAAAAAAG; value = 74.6 a.u.
Strand = TATGTATGCCTATTTCACATGTTACTAACTGAAGAC; value = 146 a.u.
Strand = CCAAGCGTTCAAGTCAGTGTGACGGACACCAGAGTA; value = 75.3 a.u.

Series 4 — method: RNA Bind-n-Seq; form: RNA; matrix: in vitro; tested at: 365 nM; reference: no-protein control; reading: higher = stronger binding; endpoint: RBNS enrichment (R)
Target: RNA binding protein fox-1 homolog 2, RRM domain, GST-SBP tag (RBFOX2, Homo sapiens, UniProt O43251-10, residues 100-194)
Notes: natural RNA segment, single round, ends assumed
All sequences stand within: GGGAGUUCUACAGUCCGACGAUC … UGGAAUUCUCGGGUGCCAA
Residues (chain): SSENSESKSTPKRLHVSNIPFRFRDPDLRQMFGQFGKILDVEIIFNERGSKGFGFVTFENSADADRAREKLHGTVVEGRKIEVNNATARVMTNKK
Strand = AAGGUCGAGACUGGAGAAGCACACUUCCUUCUUGGGCAGCUUCCCACCAUGGCACAGGUGCUAUGGCGGGAUGGUCAUCUCACUCCCUAGCUUCCUGUGGGUCAGGAGUG; value = 0.166
Strand = CUGCUCUAAGCUUUGACACGUCAAAAUGUGGGAUCAGAAAGAAAAAAAUCAUGAUAUUUAAAAAUGGUCAAAUAUUUGAGGCAAAAAAAAAAAAAAAAAGUGUCUCCAGG; value = 0.438
Strand = CGGAGGUGGGGAAGAACUACUUUCGAGAAUUGUUACGGAGGCAGGUUGAGGGGACACUUUGACCCUCCAAGGUAACAGCCAGUCAGAUGGCUUGAGGUGCCUGGCCCAUG; value = 0.375
Strand = AGAGCAUCCUAAAGAAAGCACGCAUGAGGUCAUUCUGAUGCACGGCGAGAUGAGAUGUCAUUUCUGCUUUGGAGAAGGCAAGUUUAAUGAAGAGAAAGAAAAACAGGAGC; value = 2.98
Strand = GCAGUAAGAAUUGCCAGCCACUCAUUGUGCGGGUCUGCGUGGAGCUUUAAUCAGAAAAAGCCUCCACUUUCUGUAUUAUGUUAACAUUGGCUCAUGCAUAUAACUAUCUG; value = 0.486
Strand = CUGAGGAAACAAGAAAAGAAGAAGAGGCACAUGAAGUGUGCUUUUGGGAAUAGAAUUUAAAAUUGGAUUAAGAUUUUAUUUCCAGUUUUUUUUAUUUAUUUAUUUUUUUU; value = 0.635
Strand = GACUACAAUUUCUUUUCAUAAAACUUCUUCUCUUCUUGGAAUUAUUAAUUCCUAUCUGCUUCCUAGCUGAUAAAGCUUAGAAAAGGCAGUUAUUCCUUCUUUCCAACCAG; value = 0.449
Strand = AAGUGCUGGGAUUACAGGAGUGAGCCACUGUGCCUGGCCUAUCCCACUUGGUUUUUGACUGAAGGGGAAGUGUAGAAAUAUAUUGAUUUGUGAUUUCUGGUGUCACCUGU; value = 1.34
Strand = GCGAAGUCUAAAACCGGUCUCUUUUUUAUUUGUUACUUGGAUGAGAGCACCUGAAGACUAAUGUUUUACACUGGAUUGAGAUCUCAUGGAAAAUGAAACAUUCUUUUUCU; value = 0.885
Strand = CCUGUGCCUCAGAUGGCUUGCUGCCAGCUGUCAGAUACACAUAGAAGCUUAUAUCUCUCAAAUUAAUGGAUAUUAGCACUUGGAGGAAUGUAGGGGGAUCUCGGAAUGAA; value = 0.559
Strand = AAAAUGCCUUUUUUGGAAGGACUAACAGAAAGCACCUGAUUUGCACUUGAACCAGAUUAUAGAUUUAAAAGUAUAUGACAUGUAUUUUGUAUUUAAAACUAGAAUAGCCA; value = 0.722
Strand = CUGUGGUUGCGCUCCUUUCCCCAGGAAAAAGAAAAGAAAAAGAAAUUCGCAUGUUUAAUGUGACUUCCCCUCCCCGUCUGUGUUCUAACUUAUUUAUAAAAGGAUGAUGG; value = 0.753
